# Measured values collected from several papers.
# Lines come from different studies, so protocols differ.
# KIT V559D: Mast/stem cell growth factor receptor Kit (KIT, Homo sapiens, UniProt P10721, V559D)
# KIT: Mast/stem cell growth factor receptor Kit (KIT, Homo sapiens, UniProt P10721)
# KIT A829P: Mast/stem cell growth factor receptor Kit (KIT, Homo sapiens, UniProt P10721, A829P)
# KIT V559D/V654A: Mast/stem cell growth factor receptor Kit (KIT, Homo sapiens, UniProt P10721, V559D/V654A)
# KIT T670I/V559D: Mast/stem cell growth factor receptor Kit (KIT, Homo sapiens, UniProt P10721, T670I/V559D)
# KIT autoinhibited: Mast/stem cell growth factor receptor Kit, autoinhibited (KIT, Homo sapiens, UniProt P10721)
Compound,target,read-out,method,tested at,setting,baseline,remaining binding [%]
Nc1ncc2c(n1)-c1c([nH]c3ccc(C4=CCOCC4)cc13)CCC2,KIT V559D,binding,competition with immobilised ligand,1 µM,,,92
COc1c(Cl)cccc1Nc1c(-c2ccncc2C#C[C@@]2(C)CCCN2C(=O)/C=C/CN(C)C)[nH]c2c1C(=O)NCC2,KIT,binding,competition with immobilised ligand,3 µM,,,99
Cc1cnc2nc1Nc1cccc(c1)COC/C=C/COCc1cc(ccc1OCCN1CCOCC1)N2,KIT A829P,binding,,0.1 µM,,,25
CCN1CCN(Cc2ccc(C(=O)Nc3ccc(C)c(NCc4cnc5[nH]ccc5c4OC)c3)cc2C(F)(F)F)CC1,"Mast/stem cell growth factor receptor Kit (KIT, Homo sapiens, UniProt P10721, D816V)",binding,competition with immobilised ligand,1 µM,,,22
CNc1ccc(-c2n[nH]c3c2CCN(C(=O)c2ccccc2)C3)cc1,KIT,cell-free assay,competition with immobilised ligand,10 µM,,,3.5
Cc1ccc(-c2c(/C=C(\C#N)C(=O)NC(C)C)n(CCCO)c3ncnc(N)c23)cc1,KIT A829P,cell-free assay,competition with immobilised ligand,1 µM,,,70
C=CC(=O)N1CCCC(n2c(=O)c3ncccc3n(Cc3ccc(Oc4ccccc4)cc3)c2=O)C1 (stereo not drawn),KIT V559D/V654A,cell-free assay,competition with immobilised ligand,1 µM,,,100
C=CC(=O)N1CCc2ccc(-n3c(=O)ccc4cnc5ccc(-c6cnn(C)c6)cc5c43)cc21,KIT V559D,,KINOMEscan,1 µM,,DMSO control,68
CC(=O)N1c2ccc(-c3ccc(CNC(=O)c4cn5cc(-c6cnc(N)nc6)nc(N6CCOCC6)c5n4)cc3)cc2CC[C@@H]1C,KIT T670I/V559D,,KINOMEscan,10 µM,V559D/T670I mutant,,85
CNC(=O)C1CCN(c2cc(C)c(F)cc2NC(=O)c2ccc(-c3cc(O)ccc3C)c(C)c2)CC1,KIT autoinhibited,binding,competition with immobilised ligand,1 µM,,,65
CNC1C[S+]2CC[S+]3CC[S+](C1)[Ru-4]321([N]=C=S)[n]2c3ccc(OC)cc3c3c4c(c5cc(F)c[n+]1c5c32)C(=O)NC4=O (stereo not drawn),KIT autoinhibited,,KinomeScan,0.1 µM,,untreated,95
CCN1CCN(Cc2ccc(NC(=O)c3ccc(C)c(NC(=O)c4cncc(-c5cccs5)c4)c3)cc2C(F)(F)F)CC1,KIT V559D/V654A,binding,competition with immobilised ligand,1 µM,,,6.8
CNS(=O)(=O)Nc1nccc(Cc2c(C)c3ccc(Oc4ncccc4F)cc3oc2=O)c1F,KIT T670I/V559D,binding,competition with immobilised ligand,10 µM,,,98
CN1CCN(Cc2ccc(NC(=O)c3cccc(C#Cc4cnc(N)c5ncccc45)c3)cc2C(F)(F)F)CC1,KIT T670I/V559D,cell-free assay,competition with immobilised ligand,50 nM,,,1.6
CC(C)=CC1OC(C)(C)C2C=C3C(=O)C(Cl)=CC(O)C3C3C(O)C4OC4C(=O)C132 (stereo not drawn),KIT,cell-free assay,competition with immobilised ligand,10 µM,,,87
